Assay results pooled from the literature.
Compare with care: the assays were run in different laboratories. ± gives the spread as reported.

NCCCC[C@@H]1NC(=O)[C@@H](Cc2c[nH]c3ccccc23)NC(=O)[C@H](c2ccccc2)NC(=O)[C@@H]2C[C@@H](OC(=O)NCCN)CN2C(=O)[C@H](Cc2ccccc2)NC(=O)[C@H](Cc2ccc(OCc3ccccc3)cc2)NC1=O gave an alpha half-life of 2.2 ± 0.6 h (radioimmunoassay; healthy human male volunteers, plasma; subcutaneous, 600 µg).
With C=CC(=O)N1CCC(CNc2ncnc(N)c2-c2ccc(Oc3ccccc3)cc2)CC1 the Vz/F was 703 L (human, plasma; oral, 200 mg single dose, geometric mean).
Cc1cccc(Nc2ccccc2C(=O)O)c1C gave an EC20 of over 400 µM (mitochondrial swelling; BALB/cByJ female mouse liver mitochondria; 30 min, added: succinate + rotenone; relative to: CaCl2 maximal swelling).
COc1cc2ncnc(Nc3ccc(F)c(Cl)c3)c2cc1NC(=O)/C=C/CN1CCCCC1 has an IC50 of 30.5 µM (poziotinib M1 formation, inhibitor; human liver microsomes; 50 min, pH 7.4, added: poziotinib 100 µM).
CCCC[C@H](NC(C)=O)C(=O)N[C@H]1CCC(=O)NC[C@@H](C(=O)N[C@@H](Cc2c[nH]c3ccccc23)C(N)=O)NC(=O)[C@H](CCCNC(=N)N)NC(=O)[C@@H](Cc2ccccc2)NC(=O)[C@H](Cc2c[nH]cn2)NC1=O has a Cmax of 1050 ng/mL (Sprague Dawley rats, male, plasma; subcutaneous, 25.0 mg/kg daily, day 28).
CN(C)C(=O)c1cc2cnc(Nc3ccc(N4CCNCC4)cn3)nc2n1C1CCCC1 gave an unbound AUC(0-24h) of 7640 ± 2160 ng·h/mL (CD1 nude mouse, non-tumour-bearing, plasma (unbound); oral, 100 mg/kg, microdialysis study).
For CCCCCCCCCCCCCCC[C@H](O)[C@@H](N)CO, the AUC was 106 µM·h (human, phase I, plasma; intravenous, 600 mg/m^2, day 1, monotherapy).
C[C@@H](N)c1cc(Cl)ccc1Cn1c(=S)[nH]c(=O)c2[nH]ccc21: tolerability “not toxic” (Japanese and Chinese participants; up to 5 mg).
For CC(=O)N[C@@H](CCC(=O)O)C(=O)N[C@H](C(=O)N[C@@H](CCCNC(=N)N)C(=O)N[C@@H](CO)C(=O)N[C@@H](CCCCN)C(=O)N[C@@H](CC(C)C)C(=O)N[C@@H](CCC(=O)O)C(=O)N[C@@H](CCC(=O)O)C(=O)N[C@@H](Cc1c[nH]c2ccccc12)C(=O)N[C@@H](Cc1ccccc1)C(=O)N[C@@H](C)C(=O)N[C@@H](C)C(=O)N[C@@H](Cc1ccccc1)C(=O)N[C@@H](CCCNC(=N)N)C(=O)N[C@@H](CCC(=O)O)C(=O)N[C@@H](Cc1ccccc1)C(=O)N[C@@H](C)C(=O)N[C@@H](CCC(=O)O)C(=O)N[C@@H](CCC(=O)O)C(=O)N[C@@H](Cc1ccccc1)C(=O)N[C@@H](CC(C)C)C(=O)N[C@@H](C)C(=O)N[C@@H](CCCNC(=N)N)C(=O)N[C@@H](CC(C)C)C(=O)N[C@@H](CCCCN)C(=O)N[C@@H](CO)C(N)=O)C(C)C, “TFE share for monomeric peptide” read over 40 % TFE (DMS cross-linking, SDS-PAGE; phosphate buffer; 30 min, pH 7.4, 25 °C).
COc1ccc(-c2ccc3c(N4CCOC[C@@H]4C)nc(N4CCOC[C@@H]4C)nc3n2)cc1CO — result for “apparent clearance (CL/F)”: 7.6 mL/h (mice, plasma; intraperitoneal, 10 mg/kg).
The AUC(0-tau) of COCCCCn1c(C(=O)N(CC(C)C)[C@@H]2CNC[C@H](C(=O)N3CCOCC3)C2)nc2ccccc21 is reported as 6020 ng·h/mL (human, elderly, plasma; oral, 80 mg once daily, day 7, mean).
NCCCC(=O)O has a brain concentration of 272 ± 15.2 ng/mL (LC-MS; Sprague-Dawley rat, male, anaesthetised, brain homogenate supernatant; intravenous infusion, 50 mg/kg/h, steady state).
With Clc1ccc(COC(Cn2ccnc2)c2ccc(Cl)cc2Cl)cc1 (stereo not shown) the EC20 was 30.5 µM (mitochondrial swelling; BALB/cByJ female mouse liver mitochondria; 30 min, added: succinate + rotenone; relative to: CaCl2 maximal swelling).
Cc1c(C)c2c(c(C)c1O)CCC(C)(COc1ccc(CC3SC(=O)NC3=O)cc1)O2 (stereo not shown) — result for “intrinsic hepatic clearance”: 3830 L/h (parallel tube model; human; from oral clearance).
COc1ccc2c(c1)c(CC(=O)O)c(C)n2C(=O)c1ccc(Cl)cc1 has an EC20 of over 200 µM (cytochrome c release, ELISA; BALB/cByJ female mouse liver mitochondria; 30 min; relative to: alamethicin maximal release).
CCOc1ccc2c(c1)C(C)=CC(C)(C)N2 has a residue concentration of 8.6 ± 5.9 ng/g (LC-MS/MS; piglets, subcutaneous fat; oral, 50 mg/kg feed, 42 days).

A few entries again:
C[C@@H](N)c1cc(Cl)ccc1Cn1c(=S)[nH]c(=O)c2[nH]ccc21: tolerability “not toxic” (Japanese and Chinese participants; up to 5 mg).
NCCCC(=O)O has a brain concentration of 272 ± 15.2 ng/mL (LC-MS; Sprague-Dawley rat, male, anaesthetised, brain homogenate supernatant; intravenous infusion, 50 mg/kg/h, steady state).
